{"data": "Published values from different studies", "note": "A part holds a random share of what one study measured.", "chain of UniProt Q05655 (whole entry, looked up)": "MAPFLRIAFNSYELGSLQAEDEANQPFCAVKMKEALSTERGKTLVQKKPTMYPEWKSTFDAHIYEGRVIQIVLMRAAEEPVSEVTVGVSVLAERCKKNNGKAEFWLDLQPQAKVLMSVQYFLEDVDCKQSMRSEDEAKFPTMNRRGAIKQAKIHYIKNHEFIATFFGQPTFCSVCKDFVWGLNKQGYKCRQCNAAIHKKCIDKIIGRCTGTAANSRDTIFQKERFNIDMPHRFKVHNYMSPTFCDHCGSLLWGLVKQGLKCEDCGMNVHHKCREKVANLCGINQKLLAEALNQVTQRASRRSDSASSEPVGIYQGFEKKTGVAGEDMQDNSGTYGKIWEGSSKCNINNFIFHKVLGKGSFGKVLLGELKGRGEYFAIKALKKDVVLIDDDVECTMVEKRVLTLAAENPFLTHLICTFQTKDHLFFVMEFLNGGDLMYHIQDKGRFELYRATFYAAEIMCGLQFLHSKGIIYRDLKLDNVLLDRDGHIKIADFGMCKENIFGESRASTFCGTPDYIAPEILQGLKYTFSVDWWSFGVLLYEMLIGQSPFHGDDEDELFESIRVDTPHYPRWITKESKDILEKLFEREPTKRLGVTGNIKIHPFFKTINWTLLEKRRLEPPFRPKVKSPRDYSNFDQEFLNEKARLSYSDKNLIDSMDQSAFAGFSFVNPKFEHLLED", "chain of UniProt P57059 (whole entry, looked up)": "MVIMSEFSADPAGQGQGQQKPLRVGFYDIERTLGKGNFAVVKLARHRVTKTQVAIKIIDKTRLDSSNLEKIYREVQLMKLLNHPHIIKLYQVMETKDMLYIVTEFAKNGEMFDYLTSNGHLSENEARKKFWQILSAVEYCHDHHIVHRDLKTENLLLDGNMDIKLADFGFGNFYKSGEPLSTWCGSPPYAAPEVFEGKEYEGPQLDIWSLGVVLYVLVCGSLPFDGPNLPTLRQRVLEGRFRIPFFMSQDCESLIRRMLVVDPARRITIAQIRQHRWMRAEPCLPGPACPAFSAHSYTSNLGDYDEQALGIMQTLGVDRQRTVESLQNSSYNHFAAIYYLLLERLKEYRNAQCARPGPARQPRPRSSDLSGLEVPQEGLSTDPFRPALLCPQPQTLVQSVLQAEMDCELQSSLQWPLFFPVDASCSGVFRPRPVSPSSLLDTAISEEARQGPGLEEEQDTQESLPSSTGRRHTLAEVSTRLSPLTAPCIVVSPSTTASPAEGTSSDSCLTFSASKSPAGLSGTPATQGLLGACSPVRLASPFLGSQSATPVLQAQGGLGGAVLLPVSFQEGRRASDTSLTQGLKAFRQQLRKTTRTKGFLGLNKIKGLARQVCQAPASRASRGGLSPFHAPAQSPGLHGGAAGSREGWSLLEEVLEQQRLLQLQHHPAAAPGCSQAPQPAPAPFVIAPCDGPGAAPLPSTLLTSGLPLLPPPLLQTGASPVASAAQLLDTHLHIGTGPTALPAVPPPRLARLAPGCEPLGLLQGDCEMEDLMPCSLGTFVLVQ", "chain of UniProt Q96NX5 (whole entry, looked up)": "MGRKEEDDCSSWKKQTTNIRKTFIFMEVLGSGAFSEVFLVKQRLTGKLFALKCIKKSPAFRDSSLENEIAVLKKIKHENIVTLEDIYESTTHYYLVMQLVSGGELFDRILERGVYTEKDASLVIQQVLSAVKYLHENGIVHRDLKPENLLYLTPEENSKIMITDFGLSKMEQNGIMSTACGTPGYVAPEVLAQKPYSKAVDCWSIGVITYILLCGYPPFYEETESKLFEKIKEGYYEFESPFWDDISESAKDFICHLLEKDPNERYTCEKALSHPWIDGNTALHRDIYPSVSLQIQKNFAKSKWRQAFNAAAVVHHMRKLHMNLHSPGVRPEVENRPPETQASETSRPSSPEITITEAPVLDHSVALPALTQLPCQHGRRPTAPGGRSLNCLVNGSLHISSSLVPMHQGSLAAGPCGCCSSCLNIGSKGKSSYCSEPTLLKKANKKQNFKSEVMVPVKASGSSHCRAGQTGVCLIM", "chain of UniProt Q04771 (whole entry, looked up)": "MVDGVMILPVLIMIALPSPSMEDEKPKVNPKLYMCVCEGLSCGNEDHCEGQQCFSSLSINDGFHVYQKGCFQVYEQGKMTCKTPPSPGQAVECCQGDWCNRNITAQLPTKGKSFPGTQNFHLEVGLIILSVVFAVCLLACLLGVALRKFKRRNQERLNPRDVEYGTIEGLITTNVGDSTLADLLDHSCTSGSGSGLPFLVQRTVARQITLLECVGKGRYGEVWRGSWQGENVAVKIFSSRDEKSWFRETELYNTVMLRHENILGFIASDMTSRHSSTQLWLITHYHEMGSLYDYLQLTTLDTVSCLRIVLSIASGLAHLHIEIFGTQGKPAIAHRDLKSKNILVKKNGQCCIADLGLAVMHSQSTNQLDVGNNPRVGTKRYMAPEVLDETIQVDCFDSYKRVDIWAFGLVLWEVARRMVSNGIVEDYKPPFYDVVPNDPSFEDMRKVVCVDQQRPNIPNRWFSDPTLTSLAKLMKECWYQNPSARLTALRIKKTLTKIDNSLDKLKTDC", "chain of UniProt Q9UQB9 (whole entry, looked up)": "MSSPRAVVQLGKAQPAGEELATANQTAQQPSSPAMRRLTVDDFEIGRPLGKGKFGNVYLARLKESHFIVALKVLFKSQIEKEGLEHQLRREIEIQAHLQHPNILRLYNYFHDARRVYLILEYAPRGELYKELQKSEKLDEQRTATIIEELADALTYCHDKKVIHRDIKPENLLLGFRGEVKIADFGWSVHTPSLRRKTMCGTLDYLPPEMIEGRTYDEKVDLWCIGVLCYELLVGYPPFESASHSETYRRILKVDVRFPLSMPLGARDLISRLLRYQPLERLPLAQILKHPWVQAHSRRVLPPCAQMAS", "chain of UniProt Q8WTQ7 (whole entry, looked up)": "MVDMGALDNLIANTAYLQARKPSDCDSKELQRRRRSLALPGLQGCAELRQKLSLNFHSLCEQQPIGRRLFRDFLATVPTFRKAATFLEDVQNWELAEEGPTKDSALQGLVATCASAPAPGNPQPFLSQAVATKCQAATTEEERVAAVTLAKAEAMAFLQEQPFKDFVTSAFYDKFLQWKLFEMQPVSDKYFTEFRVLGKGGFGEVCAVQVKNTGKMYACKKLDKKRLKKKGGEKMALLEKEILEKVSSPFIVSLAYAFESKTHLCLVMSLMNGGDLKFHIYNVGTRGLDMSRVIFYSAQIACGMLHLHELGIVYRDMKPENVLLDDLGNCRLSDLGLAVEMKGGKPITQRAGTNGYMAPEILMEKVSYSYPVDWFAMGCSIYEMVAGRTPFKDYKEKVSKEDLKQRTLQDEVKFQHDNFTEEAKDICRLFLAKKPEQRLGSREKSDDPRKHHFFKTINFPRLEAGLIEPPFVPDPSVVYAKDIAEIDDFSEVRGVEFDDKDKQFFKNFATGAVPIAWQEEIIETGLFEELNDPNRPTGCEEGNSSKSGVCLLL", "chain of UniProt P51813 (whole entry, looked up)": "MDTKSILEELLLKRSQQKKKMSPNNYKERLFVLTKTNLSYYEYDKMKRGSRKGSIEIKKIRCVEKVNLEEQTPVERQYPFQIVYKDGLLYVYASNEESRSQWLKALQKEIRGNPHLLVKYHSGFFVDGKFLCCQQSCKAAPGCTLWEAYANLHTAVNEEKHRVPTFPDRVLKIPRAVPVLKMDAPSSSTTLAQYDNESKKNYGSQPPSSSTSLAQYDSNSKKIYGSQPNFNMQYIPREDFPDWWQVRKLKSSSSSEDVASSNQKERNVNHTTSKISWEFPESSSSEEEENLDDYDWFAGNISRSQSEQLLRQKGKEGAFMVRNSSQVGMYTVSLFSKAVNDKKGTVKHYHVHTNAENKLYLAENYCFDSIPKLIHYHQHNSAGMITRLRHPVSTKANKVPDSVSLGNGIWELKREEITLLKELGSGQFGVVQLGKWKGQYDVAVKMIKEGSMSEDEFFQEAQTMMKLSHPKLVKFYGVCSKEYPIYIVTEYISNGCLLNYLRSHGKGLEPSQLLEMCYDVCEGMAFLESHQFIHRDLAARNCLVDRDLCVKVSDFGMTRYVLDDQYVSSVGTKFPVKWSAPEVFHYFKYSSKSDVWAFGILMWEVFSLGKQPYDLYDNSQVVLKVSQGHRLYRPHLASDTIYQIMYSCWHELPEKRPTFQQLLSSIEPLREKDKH", "chain of UniProt O94768 (whole entry, looked up)": "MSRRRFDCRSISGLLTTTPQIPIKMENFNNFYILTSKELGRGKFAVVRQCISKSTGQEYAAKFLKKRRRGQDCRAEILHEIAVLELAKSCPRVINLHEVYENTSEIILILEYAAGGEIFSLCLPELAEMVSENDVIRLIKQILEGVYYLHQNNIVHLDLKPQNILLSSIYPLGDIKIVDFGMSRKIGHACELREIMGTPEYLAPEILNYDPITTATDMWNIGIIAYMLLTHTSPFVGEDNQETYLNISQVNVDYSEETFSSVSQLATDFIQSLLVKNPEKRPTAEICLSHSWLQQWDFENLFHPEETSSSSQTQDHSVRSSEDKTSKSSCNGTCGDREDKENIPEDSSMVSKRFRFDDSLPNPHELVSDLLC"}
{"data": "Sample 1", "SMILES": "CS(=O)(=O)N1CCCC(NC(=O)[C@H](CCC2CCCCC2)NC(=O)c2ccc(CNC(=O)c3cnc4ccccn34)cc2)C1 (stereo partly drawn)", "concentration": "0.1 µM"}
{"target": "Serine/threonine-protein kinase 17B (STK17B, Homo sapiens, UniProt O94768)", "observed": "cell-free assay", "technique": "competition with immobilised ligand", "remaining binding": "83%"}
{"target": "Myosin-IIIb (MYO3B, Homo sapiens, UniProt Q8WXR4)", "observed": "cell-free assay", "technique": "competition with immobilised ligand", "remaining binding": "89%"}
{"target": "Calcium/calmodulin-dependent protein kinase type II subunit beta (CAMK2B, Homo sapiens, UniProt Q13554)", "observed": "cell-free assay", "technique": "competition with immobilised ligand", "remaining binding": "100%"}
{"target": "Casein kinase I isoform epsilon (CSNK1E, Homo sapiens, UniProt P49674)", "observed": "cell-free assay", "technique": "competition with immobilised ligand", "remaining binding": "93%"}
{"target": "Protein kinase C delta type (PRKCD, Homo sapiens, UniProt Q05655)", "observed": "cell-free assay", "technique": "competition with immobilised ligand", "remaining binding": "100%"}
{"target": "Receptor-type tyrosine-protein kinase FLT3 (FLT3, Homo sapiens, UniProt P36888, D835V)", "observed": "cell-free assay", "technique": "competition with immobilised ligand", "remaining binding": "61%"}
{"target": "5'-AMP-activated protein kinase catalytic subunit alpha-2 (PRKAA2, Homo sapiens, UniProt P54646)", "observed": "cell-free assay", "technique": "competition with immobilised ligand", "remaining binding": "79%"}
{"target": "Dual specificity mitogen-activated protein kinase kinase 3 (MAP2K3, Homo sapiens, UniProt P46734)", "observed": "cell-free assay", "technique": "competition with immobilised ligand", "remaining binding": "100%"}
{"target": "Homeodomain-interacting protein kinase 3 (HIPK3, Homo sapiens, UniProt Q9H422)", "observed": "cell-free assay", "technique": "competition with immobilised ligand", "remaining binding": "100%"}
{"target": "Rho-associated protein kinase 2 (ROCK2, Homo sapiens, UniProt O75116)", "observed": "cell-free assay", "technique": "competition with immobilised ligand", "remaining binding": "100%"}
{"target": "Receptor-type tyrosine-protein kinase FLT3 (FLT3, Homo sapiens, UniProt P36888, F691L/ITD)", "observed": "cell-free assay", "technique": "competition with immobilised ligand", "remaining binding": "100%"}
{"target": "Calcium/calmodulin-dependent protein kinase type 1G (CAMK1G, Homo sapiens, UniProt Q96NX5)", "observed": "cell-free assay", "technique": "competition with immobilised ligand", "remaining binding": "84%"}
{"target": "Tyrosine-protein kinase Srms (SRMS, Homo sapiens, UniProt Q9H3Y6)", "observed": "cell-free assay", "technique": "competition with immobilised ligand", "remaining binding": "71%"}
{"target": "Tyrosine-protein kinase ABL1, non-phosphorylated (ABL1, Homo sapiens, UniProt P00519, F317L)", "observed": "cell-free assay", "technique": "competition with immobilised ligand", "remaining binding": "32%"}
{"target": "Mitogen-activated protein kinase kinase kinase kinase 2 (MAP4K2, Homo sapiens, UniProt Q12851)", "observed": "cell-free assay", "technique": "competition with immobilised ligand", "remaining binding": "92%"}
{"target": "Serine/threonine-protein kinase 16 (STK16, Homo sapiens, UniProt O75716)", "observed": "cell-free assay", "technique": "competition with immobilised ligand", "remaining binding": "100%"}
{"target": "Aurora kinase C (AURKC, Homo sapiens, UniProt Q9UQB9)", "observed": "cell-free assay", "technique": "competition with immobilised ligand", "remaining binding": "98%"}
{"target": "Peripheral plasma membrane protein CASK (CASK, Homo sapiens, UniProt O14936)", "observed": "cell-free assay", "technique": "competition with immobilised ligand", "remaining binding": "100%"}
{"target": "Maternal embryonic leucine zipper kinase (MELK, Homo sapiens, UniProt Q14680)", "observed": "cell-free assay", "technique": "competition with immobilised ligand", "remaining binding": "100%"}
{"target": "Serine/threonine-protein kinase SIK1 (SIK1, Homo sapiens, UniProt P57059)", "technique": "competition binding", "remaining binding": "92%"}
{"target": "Mitogen-activated protein kinase kinase kinase 11 (MAP3K11, Homo sapiens, UniProt Q16584)", "observed": "cell-free assay", "technique": "competition with immobilised ligand", "remaining binding": "100%"}
{"target": "Cytoplasmic tyrosine-protein kinase BMX (BMX, Homo sapiens, UniProt P51813)", "observed": "cell-free assay", "technique": "competition with immobilised ligand", "remaining binding": "100%"}
{"data": "Sample 2", "host": "mouse", "medium": "microsomes or S9", "concentration": "2 µM", "time": "0.5 h"}
{"Compound": "COc1ccc(CCc2nc(C)c(O)c(-c3nnn[nH]3)c2C(=O)O)cc1", "remaining compound": "4.6%"}
{"Compound": "CCNC(=O)N1c2ccc(CC)cc2C(C)=CC1(C)C", "remaining compound": "0.137%"}
{"Compound": "O=C(Nc1cc(Oc2ncccn2)c(Cl)cc1F)Oc1ccccc1", "remaining compound": "1.66%"}
{"Compound": "COc1ccc(/N=C2\\C(N3CCCCC3)C3(CCCCC3)C(=O)N2c2ccc(Cl)cc2)cc1 (stereo not drawn)", "remaining compound": "45.3%"}
{"Compound": "CCC[C@H](CCO)n1c(C#N)cc(Cl)c1Br", "remaining compound": "21.3%"}
{"Compound": "Fc1ccc(CNc2c(-c3ccccn3)nc3cnccn23)cc1", "remaining compound": "0.0512%"}
{"Compound": "COc1ccc(-c2noc(Cn3cnc4c(cnn4-c4ccc(Cl)cc4)c3=O)n2)cc1", "remaining compound": "81%"}
{"Compound": "Cc1ccsc1-c1cn(C(C(=O)N(C)C)c2ccccc2)nn1 (stereo not drawn)", "remaining compound": "3.11%"}
{"Compound": "Cc1n[nH]c(C)c1Sc1ccccc1-n1cnnc1", "remaining compound": "48.4%"}
{"Compound": "Cc1cc(C)cc(N(C)S(=O)(=O)c2ccsc2-c2nc(-c3cccnc3)no2)c1", "remaining compound": "6.34%"}
{"Compound": "Cc1cc(C)c(C(=O)Nc2ccc3c(c2)n(C)c(=O)n3C)c(=O)[nH]1", "remaining compound": "76.3%"}
{"Compound": "CC(=O)N[C@@H]1CN(C(=O)c2nc3cc(C)ccn3c2F)C[C@H]1c1ccc(C)o1", "remaining compound": "65.5%"}
{"Compound": "CC1(C)CC(Nc2ccc3nncn3n2)CC(C)(C)N1", "remaining compound": "76.1%"}
{"Compound": "[O-][S+]1CCN(c2ncnc3sccc23)CC1", "remaining compound": "> 100%"}
{"Compound": "COc1cc(OC)c2c(c1)C(=O)NN1C(=O)OC(C)(C)C21C (stereo not drawn)", "remaining compound": "54.2%"}
{"data": "Sample 3", "target": "Calcium/calmodulin-dependent protein kinase type II subunit alpha (CAMK2A, Homo sapiens, UniProt Q9UQM7)", "observed": "enzyme activity", "mode": "inhibitor", "concentration": "0.5 µM", "reference": "control", "chain of UniProt Q9UQM7 (whole entry, looked up)": "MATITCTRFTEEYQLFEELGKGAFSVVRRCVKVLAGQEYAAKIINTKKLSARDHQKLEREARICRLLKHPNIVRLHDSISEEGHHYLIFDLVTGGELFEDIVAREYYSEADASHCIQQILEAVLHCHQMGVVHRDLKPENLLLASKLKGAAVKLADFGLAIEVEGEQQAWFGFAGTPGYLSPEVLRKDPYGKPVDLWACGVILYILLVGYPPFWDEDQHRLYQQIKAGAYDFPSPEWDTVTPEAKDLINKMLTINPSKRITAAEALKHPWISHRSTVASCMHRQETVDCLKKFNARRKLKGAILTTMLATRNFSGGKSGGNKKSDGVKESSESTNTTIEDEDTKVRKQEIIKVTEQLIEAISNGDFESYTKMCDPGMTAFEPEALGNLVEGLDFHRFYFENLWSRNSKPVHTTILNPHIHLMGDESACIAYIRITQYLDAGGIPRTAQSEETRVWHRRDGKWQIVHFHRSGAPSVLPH"}
{"Compound": "N#C/C(=C(/N)SC1C=CC=CC1)c1cccc(C(O)c2ccncc2)c1 (stereo not drawn)", "remaining activity": "118%"}
{"Compound": "O=C(c1ccccc1)c1ccc(N2CCOCC2)cc1O", "remaining activity": "105%"}
{"Compound": "O=C1NC(=O)/C(=C/c2ccc3c(c2)OC(F)(F)O3)S1", "remaining activity": "96.8%"}
{"Compound": "Clc1ccc(Nc2nnc(Cc3ccncc3)c3ccccc23)cc1", "remaining activity": "93.2%"}
{"Compound": "O=Nc1c(-c2c(O)[nH]c3ccccc23)[nH]c2ccccc12", "remaining activity": "50.2%"}
{"Compound": "CC(C)n1cnc2c(Nc3cccc(Cl)c3)nc(NCCO)nc21", "remaining activity": "99.1%"}
{"Compound": "COc1cc2c(N3CCN(C(=O)Nc4ccc(OC(C)C)cc4)CC3)ncnc2cc1OCCCN1CCCCC1", "remaining activity": "101%"}
{"Compound": "c1cc(-c2cnn3cc(-c4ccc(OCCN5CCCCC5)cc4)cnc23)ccn1", "remaining activity": "69.1%"}
{"Compound": "C[C@@H](N)[C@H]1CC[C@H](C(=O)Nc2ccncc2)CC1", "remaining activity": "100%"}
{"Compound": "CC(C)(C)c1nc2c3cc[nH]c(=O)c3c3cc(F)ccc3c2[nH]1", "remaining activity": "35.1%"}
{"Compound": "COc1cc2c(Nc3ccc(Br)cc3F)ncnc2cc1OCC1CCN(C)CC1", "remaining activity": "99.8%"}
{"Compound": "CCCCc1c(-c2ccc(O)cc2)[nH]c2nccnc12", "remaining activity": "97.8%"}
{"Compound": "O=C(O)/C=C/c1cc(Br)c(Br)c(Br)c1Br", "remaining activity": "64.4%"}
{"Compound": "NC(=O)c1ccc(-c2nc(-c3ccc4c(c3)OCCO4)c(-c3ccccn3)[nH]2)cc1", "remaining activity": "102%"}
{"Compound": "N#CC(c1ccnc(NCCc2cccnc2)n1)c1nc2ccccc2s1 (stereo not drawn)", "remaining activity": "105%"}
{"Compound": "Nc1nc(Nc2ccc(S(N)(=O)=O)cc2)nn1C(=S)Nc1c(F)cccc1F", "remaining activity": "14.3%"}
{"Compound": "NC(=O)c1cccc(-c2cc(Nc3ccc(OC(F)(F)F)cc3)ncn2)c1", "remaining activity": "102%"}
{"Compound": "CNc1cc2c(Nc3cccc(Br)c3)ncnc2cn1", "remaining activity": "105%"}
{"Compound": "CC(C)N(CCC(=O)c1ccc2ccccc2c1)Cc1ccccc1", "remaining activity": "106%"}
{"Compound": "O=C1c2ccccc2-c2nc3nnnn3nc21", "remaining activity": "84.7%"}
{"Compound": "O=c1c(-c2ccc(F)cc2)c(-c2ccncc2)[nH]n1-c1ccc(Cl)cc1", "remaining activity": "86.9%"}
{"Compound": "FC(F)(F)c1ccc(/C=C/c2nc(COc3ccc(CCCCn4ccnn4)cc3)co2)cc1", "remaining activity": "101%"}
{"Compound": "CCN(CC)CCCCN1c2ccccc2Oc2ccc(Cl)cc21", "remaining activity": "104%"}
{"data": "Sample 4", "Structure (SMILES)": "C=CC(=O)N1CCC[C@@H](n2nc(-c3ccc(Oc4ccccc4)cc3)c3c(N)ncnc32)C1", "mode": "inhibitor", "concentration": "1 µM"}
{"target": "eIF-2-alpha kinase GCN2 (EIF2AK4, Homo sapiens, UniProt Q9P2K8, S808G)", "inhibition": "8%"}
{"target": "Rhodopsin kinase GRK7 (GRK7, Homo sapiens, UniProt Q8WTQ7)", "observed": "enzyme activity", "inhibition": "14%"}
{"target": "Serine/threonine-protein kinase PAK 5 (PAK5, Homo sapiens, UniProt Q9P286)", "observed": "enzyme activity", "inhibition": "23%"}
{"target": "Mitogen-activated protein kinase 6 (MAPK6, Homo sapiens, UniProt Q16659)", "observed": "enzyme activity", "inhibition": "0%"}
{"target": "Serine/threonine-protein kinase haspin (HASPIN, Homo sapiens, UniProt Q8TF76)", "observed": "enzyme activity", "inhibition": "33%"}
{"target": "Dual specificity mitogen-activated protein kinase kinase 4 (MAP2K4, Homo sapiens, UniProt P45985)", "inhibition": "0%"}
{"target": "Activin receptor type-1 (ACVR1, Homo sapiens, UniProt Q04771)", "observed": "enzyme activity", "inhibition": "2%"}
{"target": "Protein kinase C delta type (PRKCD, Homo sapiens, UniProt Q05655)", "observed": "enzyme activity", "inhibition": "3%"}
{"target": "Phosphatidylinositol 5-phosphate 4-kinase type-2 gamma (PIP4K2C, Homo sapiens, UniProt Q8TBX8)", "inhibition": "0%"}
{"note": "Repeated from above (sample 3):"}
{"Compound": "N#CC(c1ccnc(NCCc2cccnc2)n1)c1nc2ccccc2s1 (stereo not drawn)", "remaining activity": "105%"}
{"Compound": "O=C(c1ccccc1)c1ccc(N2CCOCC2)cc1O", "remaining activity": "105%"}
{"Compound": "CCN(CC)CCCCN1c2ccccc2Oc2ccc(Cl)cc21", "remaining activity": "104%"}
{"Compound": "COc1cc2c(Nc3ccc(Br)cc3F)ncnc2cc1OCC1CCN(C)CC1", "remaining activity": "99.8%"}
{"Compound": "Nc1nc(Nc2ccc(S(N)(=O)=O)cc2)nn1C(=S)Nc1c(F)cccc1F", "remaining activity": "14.3%"}
{"Compound": "CC(C)N(CCC(=O)c1ccc2ccccc2c1)Cc1ccccc1", "remaining activity": "106%"}
{"Compound": "O=c1c(-c2ccc(F)cc2)c(-c2ccncc2)[nH]n1-c1ccc(Cl)cc1", "remaining activity": "86.9%"}
{"Compound": "CCCCc1c(-c2ccc(O)cc2)[nH]c2nccnc12", "remaining activity": "97.8%"}
{"Compound": "CC(C)n1cnc2c(Nc3cccc(Cl)c3)nc(NCCO)nc21", "remaining activity": "99.1%"}
{"Compound": "O=C(O)/C=C/c1cc(Br)c(Br)c(Br)c1Br", "remaining activity": "64.4%"}
{"Compound": "FC(F)(F)c1ccc(/C=C/c2nc(COc3ccc(CCCCn4ccnn4)cc3)co2)cc1", "remaining activity": "101%"}
